Published values from different studies.
Each numbered part is a random draw from the data of one study; scales do not carry over between parts. Changes are numbered by the printed parent chain.

Block 1
Target: RNA binding protein fox-1 homolog 2, RRM domain, GST-SBP tag (RBFOX2, Homo sapiens, UniProt O43251-10, residues 100-194)
Technique: RNA Bind-n-Seq
Form: RNA
Sample: in vitro
Concentration: 365 nM
Notes: natural RNA segment, single round, ends assumed
Baseline: no-protein control
Direction: higher = stronger binding
Shared flanks, not repeated: GGGAGUUCUACAGUCCGACGAUC … UGGAAUUCUCGGGUGCCAA
Target sequence (chain): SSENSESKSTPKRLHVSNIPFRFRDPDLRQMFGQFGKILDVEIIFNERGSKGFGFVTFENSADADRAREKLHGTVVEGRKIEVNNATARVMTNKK
Sequence	RBNS enrichment (R)
CGUGCUUCUUGGUGUCUGAGCAGACAGACCCUGCCAGAGUAAACUGGCUGAGGGGAGUGUCCAUCAUAUGAAAGGGAGACAGGAGAGGAAGCUCUCCGUUGUCUUUCAGU	0.311
CAACAUUCUUGCCAGAGUUCUUGGGAAACCUGUUUUUUUCUCUACUCUCCAUCUCUGCUGCUCUCAUGCUUUAAAUUGAUAAAAUAUGGGCUCAAAAAAAGAAAGCCGCC	0.345
UGCUGGGUACGCUUCUCUCGUGGGGAAGGGCCGUGUCCAGGCAUGUGGAUGGCUUGAAGACUACUGAUGCUUUCCUCUGAAUUGUUCUUUGCACUGAAGGAGGACUUGGA	12.9
AAUCCCAGCUACUCAGGAAGCUGAGGCAGGAAAAUCGCUUGAACCUGGGAGGUGGAAGUUGCAGUGAGCCGAGAUCGCACCACUGCACUCCAGCCUGGGUGACAAGAGCG	0.253
UACUUAAUAGUCUUUGGAGGUUUGUAAGGUGUUUUUUUGUUUUGUUUUAAUGUAUUUUAUUGAUUAUCUUCCCGGUUAGUCGAUUAUUUUUCCUCCUCCAAUUGUUUUAC	3.38
UUUUUUUAAUUUAAGAUUUUUAAGCAGAUUAGGACAGGUGGUGGUUGUAUUGUAAGUGGCACUGGGAACCCAGGGUUUCCUUGGGAGUUGAGGCCUUCUUUAUUCCUGCU	0.644
UGAAGGUUGGUCACCCAUCCAGCCUAUUACCUUUUGCUUUGUGUAUUAAAAGUGCUGCAAAAUCUGCCUUGCCUCCCAGGAGGCCCUUUUGUGUCUGAGGGAGGUGGGGA	0.325
AUCCUGGCUAUAGUAUUGUAUACACAGGGCCACCAGCCCCGCCCUAGUGGUCAGCUCUGAGGGGGGACUGGUGACUCUGAACAGAUCGAUGUCAACAGCCAUGGUGAACC	0.352

Block 2
Target: TAR DNA-binding protein 43, full length, His tag (TARDBP, Homo sapiens, UniProt Q13148, residues 1-414)
Technique: RNA Bind-n-Seq
Form: RNA
Sample: in vitro
Concentration: 20 nM
Notes: 6-mer, flanks averaged, single round
Together with: 150 mM LiCl
Baseline: input library
Direction: higher = stronger binding
Sequence	6-mer enrichment (R)
CCCCGA	1.06
UCAGAA	0.825
AUCGUG	0.981
UGAUCA	0.849
UUAGAC	0.862
CUGCCG	0.904
GGCCCC	1.2
AGAAUC	0.843

Further values, each from its own experiment
P1: viral docking peptide; KGVKRKLFAEDSS; partner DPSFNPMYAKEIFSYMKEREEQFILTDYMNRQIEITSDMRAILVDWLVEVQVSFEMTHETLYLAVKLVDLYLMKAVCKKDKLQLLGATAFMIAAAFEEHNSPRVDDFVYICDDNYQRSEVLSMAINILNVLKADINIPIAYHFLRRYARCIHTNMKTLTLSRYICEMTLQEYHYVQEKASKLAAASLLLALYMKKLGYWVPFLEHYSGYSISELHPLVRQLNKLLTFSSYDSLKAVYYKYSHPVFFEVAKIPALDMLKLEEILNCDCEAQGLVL
P2: PafA, mature enzyme, eGFP fusion (Elizabethkingia meningoseptica, UniProt Q9KJX5); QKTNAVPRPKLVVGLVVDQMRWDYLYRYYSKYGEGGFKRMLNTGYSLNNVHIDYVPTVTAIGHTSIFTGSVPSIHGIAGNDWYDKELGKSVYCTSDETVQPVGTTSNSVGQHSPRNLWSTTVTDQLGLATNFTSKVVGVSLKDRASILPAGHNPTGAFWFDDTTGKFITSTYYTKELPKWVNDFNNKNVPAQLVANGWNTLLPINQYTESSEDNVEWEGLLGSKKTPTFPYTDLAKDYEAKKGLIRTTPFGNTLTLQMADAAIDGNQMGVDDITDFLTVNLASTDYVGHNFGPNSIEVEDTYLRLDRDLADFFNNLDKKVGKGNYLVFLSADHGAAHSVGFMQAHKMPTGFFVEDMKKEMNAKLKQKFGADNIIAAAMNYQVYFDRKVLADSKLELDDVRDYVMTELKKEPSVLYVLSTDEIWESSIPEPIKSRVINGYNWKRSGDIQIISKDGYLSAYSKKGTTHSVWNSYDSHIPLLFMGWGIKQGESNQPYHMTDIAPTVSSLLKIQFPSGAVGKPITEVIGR
Change	target	assay	test system	setting	scale	measurement	value
P1 S12L	CCNB3, cyclin fold, Cln2 fusion (human)	yeast growth competition, sequencing	yeast	strong parent motif	baseline: not given, higher = stronger binding	normalised enrichment score	2.85
P2 E239G	inorganic phosphate, free oxyanion	microfluidic competitive inhibition	in vitro, cell-free expressed	not given, derived from inhibition constants, unchanged parent 615000 nM	lower = stronger binding	phosphate dissociation constant	441 µM
